Measured values collected from several papers.
Lines come from different studies, so protocols differ. Several values in a cell are separate wells, animals, samples, runs or records. Numbers after ± are the reported error.

| Structure (SMILES) | assay | test system | setting | scale | quantity | value |
| --- | --- | --- | --- | --- | --- | --- |
| CCCCCN(C)CCC(O)(P(=O)(O)O)P(=O)(O)OP(=O)(O)OC[C@H]1O[C@@H](n2ccc(N)nc2=O)C(F)(F)[C@@H]1O (some centres unmarked) |  | HEPES buffer | pH 8.2, 37 °C |  | hydrolysis rate constant | 0.091 h⁻¹ |
| C=CC(=O)Nc1cc(Nc2nccc(-c3cn(C)c4ccccc34)n2)c(OC)cc1N(C)CCN(C)C | storage stability | human plasma samples | 30 d, -80 °C, HQC level | baseline: nominal concentration | percentage recovery | 13.4% |
| CCN1/C(=C/C(C)=O)Sc2ccc(F)cc21 |  | cynomolgus monkey | oral, 30 mg/kg, 2 h post-dose | baseline: pre-dose | mean blood pressure change | 98.6 ± 3.5% |
| COc1ccc2c(c1)CN(C(=O)CCN1CCC(Cc3ccccc3)CC1)CC[S@@+]2[O-] |  | rat plasma | 10000 ng/mL |  | fu | 0.575 |
| CCCOc1ccc([C@H]2CNC(=O)N2c2ccc3[nH]cnc3c2)cc1 |  | human elderly fasted, CSF | oral, 300 mg twice daily capsule, day 7, geometric mean |  | AUC(0-24h) | 362 ng·h/mL |
| CN1C(=O)[C@@H](NC(=O)c2nnc(Cc3ccccc3)[nH]2)COc2cccnc21 | phase I single ascending dose | human, male and female | oral, 200 mg, fasted |  | participants with any serious TEAE | 0% |
| Cc1ccn2cc(-c3ccccn3)nc2c1 |  | peritoneal macrophages, Swiss mice | 5 days, 5% fetal calf serum |  | CC50 | > 63.1 µM |
| COc1ccc([C@@H](O)c2cc(-c3ncnc4cc(N5CCOCC5)ccc34)c(F)cc2Cl)nn1 | geometric mean | healthy volunteers, urine | oral, 100 mg, fasted tablet |  | renal clearance | 5.15 mL/min |
| CN1C[C@H](COc2nccc3c(NCc4ccco4)cc(Cl)nc23)OC1=O |  | C57BL/6 mouse, heart | oral, 30 mg/kg, 0.5 h | baseline: heart over plasma | tissue/plasma ratio | 0.75 |
| CO[C@H]1CC[C@H](N2C(=O)CNc3ncc(-c4ccc(C(C)(C)O)nc4)nc32)CC1 |  | patients, urine | oral, 45 mg, day -1, geometric mean |  | renal clearance | 0.833 mL/min |
| CC[C@H](C)[C@H](NC(=O)[C@H](CO)NC(=O)[C@H](Cc1ccc(O)cc1)NC(=O)[C@H](CC(=O)O)NC(=O)[C@H](CO)NC(=O)[C@@H](NC(=O)[C@H](Cc1ccccc1)NC(=O)[C@@H](NC(=O)CNC(=O)[C@H](CCC(=O)O)NC(=O)[C@H](C)NC(=O)[C@@H](N)Cc1ccc(O)cc1)[C@@H](C)O)[C@@H](C)CC)C(=O)N[C@@H](C)C(=O)N[C@@H](CCSC)C(=O)N[C@@H](CC(=O)O)C(=O)N[C@@H](CCCCN)C(=O)N[C@H](C(=O)N[C@@H](Cc1c[nH]cn1)C(=O)N[C@@H](CCC(N)=O)C(=O)N[C@@H](CCC(N)=O)C(=O)N[C@@H](CC(=O)O)C(=O)N[C@@H](Cc1ccccc1)C(=O)N[C@H](C(=O)N[C@@H](CC(N)=O)C(=O)N[C@@H](Cc1c[nH]c2ccccc12)C(=O)N[C@@H](CC(C)C)C(=O)N[C@@H](CC(C)C)C(=O)N[C@@H](C)C(=O)N[C@@H](CCC(N)=O)C(=O)N[C@@H](CCCCN)C(=O)NCC(=O)N[C@@H](CCCCN)C(=O)N[C@@H](CCCCN)C(=O)N[C@@H](CC(N)=O)C(=O)N[C@@H](CC(=O)O)C(=O)N[C@@H](Cc1c[nH]c2ccccc12)C(=O)N[C@@H](CCCCN)C(=O)N[C@@H](Cc1c[nH]cn1)C(=O)N[C@@H](CC(N)=O)C(=O)N[C@H](C(=O)N[C@H](C(=O)N[C@@H](CCC(N)=O)C(=O)O)[C@@H](C)O)[C@@H](C)CC)C(C)C)[C@@H](C)CC | GIPR luciferase bioassay | C57BL/6 mice, male, serum | subcutaneous, 1.25 µg, below detection limit |  | serum concentration | < 0.05 nM |
| C=CCN1CC(=O)N2[C@@H](Cc3ccc(O)cc3F)C(=O)N(Cc3cccc(N4CC(N5CCN(CC)CC5)C4)n3)C[C@@H]2N1C(=O)NCc1ccccc1 | item: Diarrhea | advanced solid tumour patients | oral, 100 mg twice daily, expansion part, any grade |  | treatment-related adverse events | 22.2% |
| CCO[C@H]1CCN(Cc2c(OC)cc(C)c3[nH]ccc23)[C@H](c2ccc(C(=O)O)cc2)C1 |  | human moderate hepatic impairment, plasma | oral, 200 mg single dose, geometric mean |  | total AUC(0-inf) | 53000 ng·h/mL |
| CO[C@H]1C[C@@H]2CC[C@@H](C)[C@@](O)(O2)C(=O)C(=O)N2CCCC[C@H]2C(=O)O[C@H]([C@H](C)C[C@@H]2CC[C@@H](OC(=O)NCCOCCOCCOCCOCCOCCOCCOCCOCCC(=O)N3CCc4cc(Cn5nc(-c6ccc7oc(N)nc7c6)c6c(N)ncnc65)ccc4C3)[C@H](OC)C2)C[C@@H](O)[C@H](C)/C=C(\C)[C@@H](O)[C@@H](OC)C(=O)[C@H](C)C[C@H](C)/C=C/C=C/C=C/1C |  | human patients, plasma | intravenous, 10 mg, cycle 1 day 1, 2 h infusion |  | half-life | 13.6 h |
| COC(=O)N[C@@H](C)CNc1nccc(-c2cn(C(C)C)nc2-c2cc(Cl)cc(NS(C)(=O)=O)c2F)n1 |  | humans, plasma | oral, day 14, steady state, together with: binimetinib |  | half-life median | 3.72 h |
| OC[C@H]1O[C@@H](c2ccc(F)c(Cc3cc4ccccc4s3)c2)[C@H](O)[C@@H](O)[C@@H]1O |  | Japanese type 2 diabetes patients, plasma | oral, 100 mg/day, day 14 |  | renal clearance | 2.32 ± 0.603 mL/min |
| CC(C)(C(=O)N1CCOc2c(C#N)cncc2C1)C(F)F | item: medical device site dermatitis | healthy humans, both sexes | oral, 10 mg single dose |  | subjects with TEAE | 0% |
| O=C(Nc1nc2cccc(-c3ccc(CN4CCS(=O)(=O)CC4)cc3)n2n1)C1CC1 | item: somnolence | rheumatoid arthritis patients | oral, 30 mg once daily, 4 weeks, any relatedness |  | treatment-emergent adverse events | 0% |
| CSc1ccccc1C(=O)NCCn1cc(C(=O)NCc2cccc(C)n2)c(=O)c2cc3c(cc21)OC(F)(F)O3 |  | Sprague-Dawley rat, male, plasma | intramuscular, 3 mg/kg of parent compound |  | AUC(0-t) | 55 ± 14.2 ng·h/mL |
| CNCc1ccc(-c2[nH]c3cc(F)cc4c3c2CCNC4=O)cc1 |  | patients | oral, 600 mg twice daily, all grades |  | any adverse event incidence | 100% |
| O=C(Nc1cnccc1Cl)N1CCN(Cc2ccc3c(c2)OC(F)(F)O3)CC1 |  | healthy young men, urine | oral, 25 mg once daily, day 10 |  | renal clearance | 0.283 mL/min |
| C[C@@H]1OC(=O)[C@H](Cc2ccccc2)[C@H]1O |  | Staffordshire loam sediment, aerobic dark | 20 °C |  | DT50 water | 13 days |

| Structure (SMILES) | assay | test system | setting | scale | quantity | value |
| --- | --- | --- | --- | --- | --- | --- |
| Cc1c(Cl)c(C)[n+]([O-])c(Cl)c1-c1noc(-c2cc(O)c(O)c([N+](=O)[O-])c2)n1 | item: Hyperhidrosis | healthy Chinese subjects | oral, 25 mg, 4 days |  | adverse drug reaction incidence | 6.7% |
| NCCONC(=O)[C@@H]1CC[C@@H]2CN1C(=O)N2OS(=O)(=O)O |  | healthy Chinese male subjects | intravenous, 1 g |  | number of Moderate TRAE events | 0 |
| OC[C@H]1O[C@@H](c2ccc(Cl)c(Cc3ccc(O[C@H]4CCOC4)cc3)c2)[C@H](O)[C@@H](O)[C@@H]1O |  | Japanese type 1 diabetes patients, blood | 2.5 mg, day 28 | baseline: baseline | change in Magnesium | 0.1 mEq/L |
| Cc1ccc(-c2cc(C(F)(F)F)nn2-c2ccc(S(N)(=O)=O)cc2)cc1 |  | rat, stomach | concentration not given, 4 h |  | ulcer number | 4 |
| Cc1cccc(CNC(=O)c2cn(CCNC(=O)c3ccccc3Sc3c([N+](=O)[O-])ncn3C)c3cc4c(cc3c2=O)OC(F)(F)O4)n1 |  | Sprague-Dawley rat, male, whole blood | intravenous, 5 mg/kg of parent compound |  | AUC(0-t) | 71 ± 6.87 ng·h/mL |
| FC(F)(F)c1ccc(CNc2ccc(Cc3c[nH]c4ncc(Cl)cc34)cn2)cn1 | item: Diarrhoea | patients with advanced solid tumours | oral, dose not given, grade 3 and 4, possibly related to drug |  | adverse event incidence | 4% |
| COc1nnc2ccc(N3CCC(c4ccc(OCCN5CCN(C)C(=O)[C@H]5C)cc4)CC3)nn12 |  | human, plasma | oral, 30 mg once daily, single dose, monotherapy |  | AUClast | 0.604 µM·h |
| C[C@H]1CN(C(=O)CC#N)[C@]12CCN(c1ncnc3[nH]ccc13)C2 |  | healthy human | oral, 3 mg single |  | subjects with Vomiting | 0% |
| O=C(O)CCC(=O)O.[2H]C([2H])([2H])Oc1cc(C)c2[nH]ccc2c1CN1CC[C@@H](C2CC2)C[C@H]1c1ccc(C(=O)O)cc1 | multiple ascending dose | healthy Chinese subjects | 125 mg twice daily |  | subjects with elevated AST TEAE | 0% |
| Cc1ccc(Sc2ccccc2N2CCNCC2)c(C)c1 | item: Thirst | healthy adult men | oral, 20 mg single dose, 10 day |  | participants with TEAE | 0% |
| Cc1cc(NC2CCN(C(=O)OC3CCN(C(=O)/C=C/CN(C)C)C3)CC2)n2ncc(C(C)C)c2n1 (centres unmarked) | CTCAE v4.0, item: Fatigue | patients with advanced solid tumours | oral, dose not given, TIW, grade 3 or higher |  | patients with TEAE | 0% |
| O=C(c1cccnc1-c1ccncc1)N1CCC(O)(Cc2ccccc2)CC1 |  | healthy Japanese adults | oral, dose not given, 21 days |  | participants with serious adverse events | 0% |
| Cn1cc(-c2cn3nccc3c(-c3cnn([C@]4(CC#N)C[C@@H](C#N)C4)c3)n2)cn1 |  | healthy humans fasted, plasma | 400 mg single dose, geometric mean |  | apparent clearance CL/F | 131 L/h |
| CC(=O)N(C)[C@H]1CCN(C(=O)c2cnc3c(c2)C[C@](C)(c2ccc(F)cc2)N3)C1 |  | healthy male subjects, multiple rising dose | oral, 30 mg once daily |  | any adverse event | 50% |
| O=c1c2ccccc2oc2ccccc12 |  | tricaprin-tricaprylin mixture | 60 °C, tricaprin fraction 1.00 |  | solubility | 0.0436 mole fraction |
| CCCCC[C@H](O)CC[C@@H]1[C@H]2Cc3cccc(OCC(=O)O)c3C[C@H]2C[C@H]1O | LC-MS/MS | Japanese PAH patients aged ≥sample A years, plasma | inhaled, 54 µg |  | geometric mean AUC(0-inf) | 1.11 ng·h/mL |
| COc1ccnc(C(=O)N[C@H]2COC(=O)[C@H](Cc3ccccc3)[C@@H](O)[C@H](C)OC2=O)c1O | aerobic dark soil incubation | clay soil | 20 °C, persistence endpoint |  | DT50 | 7.33 days |
| CCc1cc(C(=O)NC)c2nccc(N3CCc4c(cc(Cn5ccnc5)cc4-c4cn(C)nc4C(F)(F)F)C3=O)c2c1 |  | Sprague Dawley rats | oral, 50 mg/kg once daily, 7 days |  | serum CREA level | 47.1 ± 3.46 µmol/L |
| C=CC(=O)N1CCC(c2ccc(C(N)=O)c(-c3ccc(Oc4ccccc4)cc3)n2)CC1 | CTCAE 4.03 | patients with relapsed/refractory MCL | oral, dose not given |  | incidence of serious COPD | 0.9% |
| COc1ccc(CNc2nc(-c3ccc(C(=O)O)cc3)nc3c2c2ccccc2n3C)cc1Cl |  | NSG mice | dose not given, day 6 of treatment |  | body weight | 21.4 g and 24.1 g and 23 g and 22.8 g |
| Cc1ccc([C@@H]2O[C@H](CO)[C@@H](O)[C@H](O)[C@H]2O)cc1Cc1ccc(-c2ccc(F)cc2)s1 |  | Japanese type 2 diabetes patients | 100 mg, day 2, 24 h urine collection | baseline: baseline | urinary potassium excretion change | -8.5 mEq |
| NC[C@@]1(CC(=O)O)[C@@H]2CC[C@H]3C[C@@H]2[C@@H]1C3 |  | human, moderate renal impairment, urine | oral, 20 mg single dose |  | cumulative amount excreted | 14.1 ± 1.28 mg |

Repeated from above:
| Structure (SMILES) | assay | test system | setting | scale | quantity | value |
| --- | --- | --- | --- | --- | --- | --- |
| OC[C@H]1O[C@@H](c2ccc(Cl)c(Cc3ccc(O[C@H]4CCOC4)cc3)c2)[C@H](O)[C@@H](O)[C@@H]1O |  | Japanese type 1 diabetes patients, blood | 2.5 mg, day 28 | baseline: baseline | change in Magnesium | 0.1 mEq/L |
| Cc1ccc(-c2cc(C(F)(F)F)nn2-c2ccc(S(N)(=O)=O)cc2)cc1 |  | rat, stomach | concentration not given, 4 h |  | ulcer number | 4 |
| CO[C@H]1C[C@@H]2CC[C@@H](C)[C@@](O)(O2)C(=O)C(=O)N2CCCC[C@H]2C(=O)O[C@H]([C@H](C)C[C@@H]2CC[C@@H](OC(=O)NCCOCCOCCOCCOCCOCCOCCOCCOCCC(=O)N3CCc4cc(Cn5nc(-c6ccc7oc(N)nc7c6)c6c(N)ncnc65)ccc4C3)[C@H](OC)C2)C[C@@H](O)[C@H](C)/C=C(\C)[C@@H](O)[C@@H](OC)C(=O)[C@H](C)C[C@H](C)/C=C/C=C/C=C/1C |  | human patients, plasma | intravenous, 10 mg, cycle 1 day 1, 2 h infusion |  | half-life | 13.6 h |
| CN1C(=O)[C@@H](NC(=O)c2nnc(Cc3ccccc3)[nH]2)COc2cccnc21 | phase I single ascending dose | human, male and female | oral, 200 mg, fasted |  | participants with any serious TEAE | 0% |
| CSc1ccccc1C(=O)NCCn1cc(C(=O)NCc2cccc(C)n2)c(=O)c2cc3c(cc21)OC(F)(F)O3 |  | Sprague-Dawley rat, male, plasma | intramuscular, 3 mg/kg of parent compound |  | AUC(0-t) | 55 ± 14.2 ng·h/mL |
| COc1ccc2c(c1)CN(C(=O)CCN1CCC(Cc3ccccc3)CC1)CC[S@@+]2[O-] |  | rat plasma | 10000 ng/mL |  | fu | 0.575 |
| CC(C)(C(=O)N1CCOc2c(C#N)cncc2C1)C(F)F | item: medical device site dermatitis | healthy humans, both sexes | oral, 10 mg single dose |  | subjects with TEAE | 0% |
